Measurements collected from several papers.
Each numbered part is a random draw from the data of one study; scales do not carry over between parts.

Block 1
Target: Sal-like protein 4, full length isoform B (SALL4, Homo sapiens, UniProt Q9UJQ4-2, residues 1-616)
Method: universal PBM
Molecule type: double-stranded DNA, one strand shown
Sample: in vitro
Tested at: not given
Notes: 8-mer, flanks averaged, mean of replicates
Reading: higher = stronger binding
Target sequence (chain): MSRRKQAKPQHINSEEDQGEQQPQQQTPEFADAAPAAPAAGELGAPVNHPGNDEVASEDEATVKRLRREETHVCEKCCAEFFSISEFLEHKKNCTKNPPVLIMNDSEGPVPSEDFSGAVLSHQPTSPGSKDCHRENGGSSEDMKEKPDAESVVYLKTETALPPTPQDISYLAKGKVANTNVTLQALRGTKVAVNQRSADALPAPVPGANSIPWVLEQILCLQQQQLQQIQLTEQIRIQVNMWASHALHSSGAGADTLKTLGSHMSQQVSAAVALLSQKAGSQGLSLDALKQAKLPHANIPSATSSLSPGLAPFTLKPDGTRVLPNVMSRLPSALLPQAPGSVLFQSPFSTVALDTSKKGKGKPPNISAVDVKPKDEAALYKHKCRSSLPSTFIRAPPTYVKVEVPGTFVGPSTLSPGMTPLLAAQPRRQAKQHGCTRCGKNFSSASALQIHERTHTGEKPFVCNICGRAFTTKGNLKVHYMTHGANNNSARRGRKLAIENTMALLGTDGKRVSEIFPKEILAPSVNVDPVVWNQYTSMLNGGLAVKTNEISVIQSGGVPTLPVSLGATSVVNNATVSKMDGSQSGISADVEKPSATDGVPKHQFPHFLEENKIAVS
| Strand | E-score |
| --- | --- |
| AAGTACAA | 0.201 |
| ACATTCGG | -0.115 |
| ATGATAGG | 0.194 |
| GCCATACA | 0.0675 |
| GAATGATC | 0.139 |
| ATCCAAGG | -0.139 |
| AGGACCCT | -0.202 |
| CGGCTGTA | -0.244 |
| GTCGAATA | 0.178 |
| CCCACGAC | -0.271 |
| GTGTTTCA | 0.101 |
| AAGCGACT | 0.0498 |
| CCGAGTAG | -0.114 |
| CAGGTGCC | -0.265 |
| CGCCATGA | -0.22 |
| GTACCCTA | 0.0465 |
| CCTACTAG | -0.0172 |
| GGGGCGGA | -0.201 |
| CAAGGCCA | -0.00749 |
| CAGGGGAC | -0.249 |
| GACTGCGA | -0.139 |

Block 2
Target: RNA binding protein fox-1 homolog 2, RRM domain, GST-SBP tag (RBFOX2, Homo sapiens, UniProt O43251-10, residues 100-194)
Method: RNA Bind-n-Seq
Molecule type: RNA
Sample: in vitro
Tested at: 365 nM
Notes: natural RNA segment, single round, ends assumed
Reference: no-protein control
Reading: higher = stronger binding
All sequences stand within: GGGAGUUCUACAGUCCGACGAUC … UGGAAUUCUCGGGUGCCAA
Target sequence (chain): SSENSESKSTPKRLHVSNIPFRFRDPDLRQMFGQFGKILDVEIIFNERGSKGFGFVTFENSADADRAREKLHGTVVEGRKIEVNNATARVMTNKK
| Strand | RBNS enrichment (R) |
| --- | --- |
| CCAGAAUCCUGACUCCAUUUGCAGACAGGAAUAUAUAUGUGUUGAGCCUGAUUUUUUUUCUGGUGUGUGUAAAAUACUUCCUAGGAAUACACUGGGCACUUUUGGAAAUA | 0.521 |
| GGGUCCUCAAAGAAGUAAGGCCACAGUAAUCAAGCAAGGGCCUUUGGUUUUUUCCAGAGUUAGAUCCUCUCAGAACAGAGUCUGGGAGAACUCCAAUGCUGAAUGGAGAA | 3.91 |
| CCACACACAGAUCACUCCUCCCAGGGCUGCUGGCACACACUGAUUGUGGGGAGUUCAAGAGGCCUUUUCCCCUUGAGGGUGUGGCUGUCCCCCUUUCAGGCGUGUGGCGU | 0.392 |
| UUUGUUCUGUUUUUGUUUGUUUGUUUGUUUGUUUUUGUUUGUUUUGUGUUUUGUUUUUUACAAUACACAGUUCAGACAACAUCUUUUUACAGAUUUUAAAGCUUCAUUUA | 1.79 |
| GAAUCUGCAUAUUAAUUACCUGAUGAUUAACUUAGAAAAGAGAUGGGAACUUAUUAUACAUGGACAUUUUUGAAUAUGCCUUAAUUUAGAAACUGAAAAAUAAUCCAGUG | 0.932 |
| GAAGAAGAUUUUGAGGAUGAUGAUGAGUGGGAAGACUGAUCUAUAUAUUAUAUAUAUAUAUUUUUAAGGUGAAAUACUAAACACUACUUCCUGUCUAUUGAUCUGUAAAA | 0.899 |
| GCAUCAGGACCUCUCCACCCAGGAUCCUCCAUGCCACAUGGUCACUGCUCUCCUCAGGGACUGGGACAAGGUGCUGCCGCCUGCCCACAGUUUUCCCAAGGAACACGUAC | 0.326 |
| CUGAUGCGGCCACUCAUUCGGCUCCCCAGAAUUCCUAGACUGGGUUAAUAGGGUCAUAUUGUGAAUGUCUCACUACAAAAUGACUUGAGUCCAGUGAAAUCUCAUUAGGG | 0.637 |

Block 3
Target: Histone acetyltransferase KAT6A, winged helix 1, GST fusion (KAT6A, Homo sapiens, UniProt Q92794, residues 1-85)
Method: protein binding microarray
Molecule type: double-stranded DNA, one strand shown
Sample: in vitro
Tested at: not given
Notes: 8-mer, flanks averaged, mean of 2 arrays, mostly near background
Reference: not given
Reading: higher = stronger binding
Target sequence (chain): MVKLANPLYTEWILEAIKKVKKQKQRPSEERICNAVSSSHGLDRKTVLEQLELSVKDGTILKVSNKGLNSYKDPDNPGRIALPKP
| Strand | E-score |
| --- | --- |
| ATACCCGC | 0.335 |
| AGAGCTGA | -0.262 |
| ATGGTGGA | -0.193 |
| AGCTTTAT | -0.148 |
| AGGGTAGC | 0.0767 |
| CCGCGGAC | 0.407 |
| AGCCGTCA | 0.299 |
| ATACCTAA | -0.216 |
| CCTGTCAG | -0.123 |
| ACATGACA | -0.137 |
| GACCAAAC | 0.0416 |
| CCATAAGA | -0.0486 |
| ACACATCA | -0.174 |
| AGTTGTGC | -0.121 |
| TAACGCCA | 0.062 |
| AGGAGGAT | -0.152 |

Block 4
Target: Ras GTPase-activating protein-binding protein 1, full length (G3BP1, Homo sapiens, UniProt Q13283)
Chain of UniProt Q13283 (whole entry, looked up): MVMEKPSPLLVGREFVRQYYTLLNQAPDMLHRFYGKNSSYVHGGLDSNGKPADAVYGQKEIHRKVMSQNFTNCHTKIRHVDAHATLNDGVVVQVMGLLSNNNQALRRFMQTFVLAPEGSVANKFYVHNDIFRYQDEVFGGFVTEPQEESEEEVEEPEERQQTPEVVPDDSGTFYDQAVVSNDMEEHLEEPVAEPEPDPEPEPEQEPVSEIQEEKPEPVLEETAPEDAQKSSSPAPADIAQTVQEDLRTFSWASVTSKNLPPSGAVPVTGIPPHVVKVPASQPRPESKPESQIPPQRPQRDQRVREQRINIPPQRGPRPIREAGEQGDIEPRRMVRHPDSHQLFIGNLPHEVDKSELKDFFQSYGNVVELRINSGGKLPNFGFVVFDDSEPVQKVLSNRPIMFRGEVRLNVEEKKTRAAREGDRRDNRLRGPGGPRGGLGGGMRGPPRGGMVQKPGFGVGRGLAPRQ
Method: RNA Bind-n-Seq
Molecule type: RNA
Sample: in vitro
Tested at: 200 nM
Notes: whole 134-nt RNA, ends assumed
With: 150 mM KCl
Reference: input library
Reading: higher = stronger binding
All sequences stand within: GGGAGUUCUACAGUCCGACGAUC … UGGAAUUCUCGGGUGUCAAGG
| Strand | log2 enrichment |
| --- | --- |
| GCAGGAAGUAAAAACAAAUGGAAAUGCUUCGGAUAGUGGCAGGGGUGGGGGUUGCUAAGGAAAGGGUGGGAUGGAAAUGGGUAAAGAGUU | 1.05 |
| UCAAGUCCUGUGCUACACAUCGUAUGUACCGAAUCGGAAAGGUUUUUUUGGUGGAAAGUAUUAUGUUACGCCGUUCGGAUCUGCACUUCC | -1.03 |
| UCCUCAAGUCCUGUGCUACACAUCGUAUGUACCGAAUCGGGCGGGCGGCGGAAAGUAUUAUGUUACGCCGUUCGGAUCUGCACUUCCAGC | -0.544 |
| CUGUGCUACACAUCGUAUGUACCGAAUCAAACCCCCCCAAAUUUUUUUAAAUUUUUUUAAAAAAGUAUUAUGUUACGCCGUUCGGAUCUG | -0.0844 |
| UGGCCCUGGCGGCAUGCGGGGAGGAAGAGGUGGCCUCAUGGAUCGUGGUGGUCCCGGUGGAAUGUUCAGAGGUGGCCGUGGUGGAGACAG | 0.0984 |
| CAAGUCCUGUGCUACACAUCGUAUGUACCGAAUCGGGUUUGGGUUUGGGUUUGGGGAAAGUAUUAUGUUACGCCGUUCGGAUCUGCACUU | 0.794 |
| UGGGAGGUGGAUUUUGUUUCUUUUUUUAGCUCAUUUCCAGGGGUGGGAAUUUUUUUUUAAUAUGUGUCAUGAAUAAAGUUGUUUUUGAAA | 0.328 |
| CAAGUCCUGUGCUACACAUCGUAUGUACCGAAUCGGCCCCGGCCCCGGGCCCCGGGAAAGUAUUAUGUUACGCCGUUCGGAUCUGCACUU | -0.502 |
| GUCCUGUGCUACACAUCGUAUGUACCGAAUCAAACCCCCAAAUUUUUUUAAAUUUAAAAAAGUAUUAUGUUACGCCGUUCGGAUCUGCAC | 0.129 |

Excerpt of the above (block 3):
| Strand | E-score |
| --- | --- |
| AGGAGGAT | -0.152 |
| ACATGACA | -0.137 |
| AGAGCTGA | -0.262 |
| ACACATCA | -0.174 |
| CCATAAGA | -0.0486 |
| AGCTTTAT | -0.148 |
| GACCAAAC | 0.0416 |
| ATACCCGC | 0.335 |
| CCTGTCAG | -0.123 |
